Measurements of several laboratories.
Each line is one published result; not all experiments were run side by side. Numbers after ± are the reported error.

`CCOc1ccc(N2CC(O)(c3cccc([N+](=O)[O-])c3)[N+]3=C2CCCCC3)cc1` (centres unmarked) has an EC50 of 0.18 µM (SH-SY5Y; cytoprotection, FDA/PI staining; together with: 0.8 µM p-tau).
`[Cl-].[Cl-].[Ru+2].c1ccc(-c2ccccn2)nc1.c1ccc(-c2ccccn2)nc1.c1ccc2cc3nc4c5cccnc5c5ncccc5c4nc3cc2c1` has an EC50 of 0.165 ± 0.004 µM (SK-MEL-28; phototoxicity, resazurin; normoxia, together with: green light 523 nm, 100 J/cm2, 20 mW/cm2).
With `C=C(NC(=O)c1csc(-c2ccc(NC(=O)CCCCCBr)cc2)n1)C(=O)NC(=C)C(=O)OC` the EC50 was 9.4 µM (PC3-TxR; cell growth or viability).
`COc1ccc(NC(=O)CSc2nc3c(oc4ccccc43)c(=O)n2Cc2ccco2)cc1Cl` gave an EC50 of 3.16 µM (LDR; silenced CMV-GFP reporter derepression, qHTS).
For `COC1CN([C@H]2CC[C@H]([C@@]3(C)Oc4c(Cl)cc(C(=O)NCc5c(SC)cc(C)[nH]c5=O)c(C)c4O3)CC2)C1`, “log2 fold change” read 1.44 (RNA-seq, item: TMEM86B; human, whole blood; dose not given, 24 h; relative to: pretreatment baseline).
For `COC(=O)[C@H](C)NC(=O)[C@H](C)NC(=O)c1csc(-c2cccnc2)n1`, the EC50 was over 30 µM (SQ20B; cell growth or viability).
`CCN(CC)CCCNC(=O)CSc1c2c(nc3cc(Cl)ccc13)CCCC2` gave an EC50 of 0.398 µM (LDR; silenced CMV-GFP reporter derepression, qHTS).
With `Cc1ccncc1.[Cl-].[Cl-].[Ru+2].c1cc(-c2ccc3cccnc3n2)nc(-c2ccc3cccnc3n2)c1.c1ccc2cc3nc4c5cccnc5c5ncccc5c4nc3cc2c1` the EC50 was 69.4 ± 0.6 µM (SK-MEL-28; cell viability; dark, normoxia 18.5 % oxygen).
`C=C(NC(=O)c1csc(-c2cccnc2)n1)C(=O)NC(=C)C(=O)OC` has an EC50 of 24.2 µM (PC3-TxR; cell growth or viability).
With `O=c1[nH][nH]c(=S)n2nc(-c3ccccc3)cc12` the EC50 was 1.78 µM (SH-SY5Y; cytoprotection, FDA/PI staining; together with: 0.8 µM p-tau).
With `Cc1ccc(C(C)C)c(OCc2ccc(C(=O)N/N=C/c3cccc(O)c3O)cc2)c1` the EC50 was 1.26 µM (LDR; silenced CMV-GFP reporter derepression, qHTS).

Repeated from above:
With `C=C(NC(=O)c1csc(-c2ccc(NC(=O)CCCCCBr)cc2)n1)C(=O)NC(=C)C(=O)OC` the EC50 was 9.4 µM (PC3-TxR; cell growth or viability).
